Published values from different studies.
Each numbered part is a random draw from the data of one study; scales do not carry over between parts.

Set 1 — technique: RNA Bind-n-Seq; form: RNA; sample: in vitro; concentration: not given; relative to: input RNA pool; direction: higher = stronger binding
Target: RING finger protein unkempt homolog, zinc fingers 1-6, GST-SBP tag (UNK, Homo sapiens, UniProt Q9C0B0, residues 30-357)
Setting: RNA with constant flanks, human-mouse chimeric sites, ends assumed
Construct (chain): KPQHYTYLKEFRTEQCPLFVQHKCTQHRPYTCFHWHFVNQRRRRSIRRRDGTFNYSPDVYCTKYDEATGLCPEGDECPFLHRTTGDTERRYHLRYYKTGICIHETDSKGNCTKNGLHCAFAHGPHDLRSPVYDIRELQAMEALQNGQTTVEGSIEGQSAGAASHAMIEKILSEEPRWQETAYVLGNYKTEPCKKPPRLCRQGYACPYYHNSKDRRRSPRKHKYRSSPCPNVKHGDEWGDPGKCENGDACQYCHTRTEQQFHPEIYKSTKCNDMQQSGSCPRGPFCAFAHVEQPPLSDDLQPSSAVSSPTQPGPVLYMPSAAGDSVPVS
Sequence | bound/input enrichment [ratio]
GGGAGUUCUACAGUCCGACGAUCCUGGCACUCUAUCAGAUAUAUUAAUUUUUUAAUGUAGAUAAAAUUUCAAAAAUGAAUGGCUACUUUACACGUUUAACUAGGGUUUUACUAUAUAUGUGUACAUAUGUAUAUGUAUUUAUACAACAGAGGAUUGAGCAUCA | 15.3
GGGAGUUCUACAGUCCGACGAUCUCGGAUGCUGUGCUGGGUCACUUUUCAUAUCCAGAUCCUUCACAGUGGACAGAUGAAGAACUGGGAAUCCCUCCUGAUGAUGAAGACUGACACUGUAAACUCUCUGGACGAGUAGGAGCACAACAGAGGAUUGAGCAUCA | 0.435
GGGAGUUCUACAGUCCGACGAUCGUGUCCUGCUUUCAACUUAAAUCACUGAGGCAUCUCUACUGUUCUGUUAAAAUCAGGACUGUAGCGCUGUGUCACCACAUGAGAGUUGUUAAGCAGCCUUUCUGUGGAGGGUGGGAAUGACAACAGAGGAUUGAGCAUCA | 0.114
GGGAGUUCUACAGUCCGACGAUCGCGAACAGGACUACAGAAAUGCUGGUAGUGCUCCGGCCUUGCUGAUGACUUCUGAUGUCCCAGCAAAUGUUGGCAUUGUUGACUGCUGAGAAGAUACUUCUGAGGACCCACGUCUAAGGUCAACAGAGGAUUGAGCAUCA | 0.0584
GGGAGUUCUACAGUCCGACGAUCAAAUCGUGUGUGUCAAAUAUUGAAAGUGCUUUAUCUACACUCCAGUAUGUAAGCAGUAUAGUAGUUUCUUUAGAGAAUAGGUCAGCCAUUGUAAAGUACAAUGCAAGCUUAGUCACUCCACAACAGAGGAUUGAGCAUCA | 13.7
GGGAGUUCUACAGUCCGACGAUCCCCUCCCCGGGCCACCCACCCCUCCCGCUCCCAGCGGGAGAUCCAGGUUUCUUCUUAUUUCAUAGCAAGCCAGAACAAUGUUCUACGCACAUUUUGUCCUCAGUAAACGAGGGCCUCUGGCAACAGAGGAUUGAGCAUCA | 1.06
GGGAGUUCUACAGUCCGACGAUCAGUACUGACUCAGGCGGAUUUUGCAACCUGAAUGCAACAGCAGCAGCAUCUUAGUCACAGUAGGGUAGUUUUGGGGCUCUGUGGCCAGGGUUUUAUUCACAUGCAGGUUUGGAAAAUGUACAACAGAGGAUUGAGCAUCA | 2.48
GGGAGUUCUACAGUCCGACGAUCGGAAGUACAAUGAUGGAGAUUGAUGGUGACAAAGGCAAGCAGGGCGGUCCCACCUACUACAUAGACACUAAUGCUCUCCGCGUGCCCAGGGAGAACAUGGAGGCCAUCUCACCACUCAAGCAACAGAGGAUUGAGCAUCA | 0.628

Set 2 — technique: universal PBM; form: double-stranded DNA, one strand shown; sample: in vitro; concentration: not given; direction: higher = stronger binding
Target: Sal-like protein 4, full length isoform B (SALL4, Homo sapiens, UniProt Q9UJQ4-2, residues 1-616)
Setting: 8-mer, flanks averaged, mean of replicates
Sequence | E-score
GTGGTGAA | -0.0878
AATAACAA | 0.341
AAGTAGAG | 0.101
CCAATGGA | -0.146
AGACATCC | -0.0536
GTCTTGGA | -0.14
CGCGGCCG | -0.41
CAAAAAAG | 0.22
CCTTAATC | 0.0482
CCTTCCGC | -0.221
ACCAGTAT | -0.112
ACCCGAGC | -0.115
CGGCCACA | -0.216
GAGATACC | -0.127
CCCAGAGA | -0.195
ATTCTGAC | 0.0143
ATCCCAAT | 0.205
TAGTAACA | 0.171
CTCCGTGA | -0.147
AGTCACCA | -0.136
GGAGAGTA | 0.0307
GTGATTAA | 0.219
AGCTTTGA | 0.0905
ATCGACAG | -0.0767
ACGTCCGC | -0.131

Set 3 — technique: protein binding microarray; form: double-stranded DNA, one strand shown; sample: in vitro; concentration: not given; relative to: not given; direction: higher = stronger binding
Target: Histone acetyltransferase KAT6A, winged helix 1, GST fusion (KAT6A, Homo sapiens, UniProt Q92794, residues 1-85)
Setting: 8-mer, flanks averaged, mean of 2 arrays, mostly near background
Target sequence (chain): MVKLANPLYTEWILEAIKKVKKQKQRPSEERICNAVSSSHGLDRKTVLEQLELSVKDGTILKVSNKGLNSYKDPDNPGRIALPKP
Sequence | E-score
CTAATGGC | -0.13
AATAGGGA | -0.0981
ACAGTTAA | -0.136
CACCGTCG | 0.384
CGTTAGGC | 0.217
CTTGGTCC | -0.136
AGAGGGTC | -0.183
CGAACCAG | -0.0651
CCCGGACG | 0.277
GATGCATA | -0.0612
ATCCGCTG | 0.0953
ACGGGATG | 0.248
AGGCACTG | -0.211
GCTGAATA | -0.106
CAACCCGA | 0.135
GTCGACTA | -0.102
ACATCCCC | 0.0517
ACACAGGC | -0.252
ATAACGCA | -0.00456
GGCACTGA | 0.0445
AACGCCCT | 0.0141
ACAGTCCT | -0.269
AGTGCAAT | -0.0835
GGAAGGGA | -0.0253
GGGTCAAA | -0.109

Set 4 — technique: RNA Bind-n-Seq; form: RNA; sample: in vitro; concentration: 200 nM; setting: whole 134-nt RNA, ends assumed; together with: 150 mM KCl; relative to: input library; direction: higher = stronger binding
Target: Ras GTPase-activating protein-binding protein 1, full length (G3BP1, Homo sapiens, UniProt Q13283)
UniProt Q13283, sequence (whole entry, looked up): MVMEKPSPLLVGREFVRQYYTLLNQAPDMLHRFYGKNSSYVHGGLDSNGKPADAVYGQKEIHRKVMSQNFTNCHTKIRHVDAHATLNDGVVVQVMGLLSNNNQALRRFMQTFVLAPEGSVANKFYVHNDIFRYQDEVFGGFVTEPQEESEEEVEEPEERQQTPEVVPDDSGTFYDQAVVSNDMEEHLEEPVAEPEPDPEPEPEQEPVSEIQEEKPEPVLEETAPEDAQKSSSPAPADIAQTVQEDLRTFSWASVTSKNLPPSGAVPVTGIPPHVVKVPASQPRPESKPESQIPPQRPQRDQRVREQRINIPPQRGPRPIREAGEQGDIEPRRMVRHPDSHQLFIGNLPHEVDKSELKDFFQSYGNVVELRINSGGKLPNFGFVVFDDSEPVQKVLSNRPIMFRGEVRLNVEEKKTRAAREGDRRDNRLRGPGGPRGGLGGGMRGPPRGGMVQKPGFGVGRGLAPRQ
Sequence | log2 enrichment
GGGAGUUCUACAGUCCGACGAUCCAAGUCCUGUGCUACACAUCGUAUGUACCGAAUCGGGUUUUUGGGUGGGUUUGGGAAAGUAUUAUGUUACGCCGUUCGGAUCUGCACUUCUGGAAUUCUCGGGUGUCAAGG | 0.421
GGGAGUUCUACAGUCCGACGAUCCCUGUGCUACACAUCGUAUGUACCGAAUCGGGAAAAAAAGGGUUUUUGGGUUUUUUUGGGAAAGUAUUAUGUUACGCCGUUCGGAUCUGCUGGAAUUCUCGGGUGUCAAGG | -0.947
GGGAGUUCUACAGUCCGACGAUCAGUCCUGUGCUACACAUCGUAUGUACCGAAUCGGGGAAAAAGGAAAAAGGAAAAAGGAAAGUAUUAUGUUACGCCGUUCGGAUCUGCACUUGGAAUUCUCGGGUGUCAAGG | -0.763
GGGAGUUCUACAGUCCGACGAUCUGGGAGGUCGAUUUUGUUUAUUUUUUUAGCUCAUUUCCAGGGGUGGGAAUUUUUUUUUAAUAUGUGUCAUGAAUAAAGUUGUUUUUGAAAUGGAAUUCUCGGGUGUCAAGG | -0.502
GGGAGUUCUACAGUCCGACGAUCUGGGAGGUGGAUUUUGUUUAUUUUUUUAGCUCAUUUCCAGGGGUGGGAAUUUUUUUUUUAUAUGUGUCAUGAAUAAAGUUGUUUUUGAAAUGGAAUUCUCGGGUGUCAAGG | 0.209
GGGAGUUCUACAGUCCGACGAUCAAGUCCUGUGCUACACAUCGUAUGUACCGAAUCGGAAAAAGGAAAAAGGAAAAAGGGAAAGUAUUAUGUUACGCCGUUCGGAUCUGCACUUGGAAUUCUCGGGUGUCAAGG | -1.1
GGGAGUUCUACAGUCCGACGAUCGUCCUGUGCUACACAUCGUAUGUACCGAAUCAAAGUGUGUGUGUGUGUGUGUGUGUAAAAAAGUAUUAUGUUACGCCGUUCGGAUCUGCAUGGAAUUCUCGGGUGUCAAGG | 0.617
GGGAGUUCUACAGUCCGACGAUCUCCUCAAGUCCUGUGCUACACAUCGUAUGUACCGAAUCGGCGGGGCGGGCGGAAAGUAUUAUGUUACGCCGUUCGGAUCUGCACUUCCAGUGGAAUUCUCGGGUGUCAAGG | -0.0846
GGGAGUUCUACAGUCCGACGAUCUCCUCAAGUCCUGUGCUACACAUCGUAUGUACCGAAUCGGUGGAAAGGUGGAAAGUAUUAUGUUACGCCGUUCGGAUCUGCACUUCCAGCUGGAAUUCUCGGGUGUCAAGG | -0.588

Set 5 — technique: RNAcompete; form: RNA; sample: in vitro; concentration: 20 nM; setting: 7-mer, probes averaged, single round; relative to: mean of 7-mers; direction: higher = stronger binding
Target: PABPC1L2, full length, GST fusion (mouse, UniProt A0ABA7IW68)
Target sequence (chain): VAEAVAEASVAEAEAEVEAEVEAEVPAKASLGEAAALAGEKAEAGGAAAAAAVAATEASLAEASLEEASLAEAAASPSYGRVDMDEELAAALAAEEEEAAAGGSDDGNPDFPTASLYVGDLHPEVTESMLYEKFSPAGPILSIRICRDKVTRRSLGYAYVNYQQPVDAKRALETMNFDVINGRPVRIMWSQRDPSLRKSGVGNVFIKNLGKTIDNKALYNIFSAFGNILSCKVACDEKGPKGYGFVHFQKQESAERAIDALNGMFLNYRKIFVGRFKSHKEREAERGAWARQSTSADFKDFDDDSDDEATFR
Sequence | 7-mer Z-score
CUAUACG | -0.222
CAUUAAU | -0.249
AUACCCU | -0.277
AAUAGUA | 0.258
UCUGGAU | -0.195
UAAGUAA | 0.111
CCGAUUG | -0.191
ACUGGGC | 0.169
CAGAAAG | 0.811
GUUUCUG | -0.389
ACAUUCU | -0.224
GAGAGCG | 0.0279
GCAUAAA | 2.44
AUGCCUA | -0.202
CCUGAGG | -0.19
GAUACGG | -0.00108
UGCCUUU | -0.135
CUUGUUU | -0.412
AUCUAAC | -0.199
CGCGGUA | -0.193
